# Published values collected from several papers.
# Every numbered part comes from another study and shows a few of its results, in no order. Several values in a cell are separate wells, animals, samples, runs or records.

# Set 1 — species: mouse; medium: microsomes or S9; tested at: 2 µM; time: 0.5 h
SMILES,remaining compound [%]
O=C1N=C(O)N=C(O)/C1=C\NNC(=O)c1ccccc1O,70.2
COC(=O)[C@@]12Cc3ccccc3[C@@H](C1)N(C(C)(C)C)O2,1.21
Cc1ccc2cc3c(nc2c1)OCCN(C1CCCC1)C3,0.155
O=c1ccc2ccc3occc3c2o1,22.4

# Set 2 — cell line: mouse MPNST tumor cells; technique: high-content nuclear imaging; refers to: cell number; tested at: 10 µM; time: 12 h; notes: mean of 2 replicates; reference: plate mean; direction: higher = more cells
SMILES,nuclei count
NC(=O)C[S@@+]([O-])C(c1ccccc1)c1ccccc1,1.44 z-score
Cc1cccc([C@H](C)c2c[nH]cn2)c1C,0.335 z-score and -0.241 z-score
CCc1c(C(=O)OC)ncc2[nH]c3cc(OC)c(OC)cc3c12,1.7 z-score
O=C(NCCN1CCC2(CC1)C(=O)NCN2c1cccc(F)c1)c1ccc(F)c(F)c1,3.28 z-score
Cc1cccc(NC(=O)N[C@@H]2N=C(c3ccccc3)c3ccccc3N(C)C2=O)c1,2.8 z-score
CCN[C@@H](C)Cc1cccc(C(F)(F)F)c1,2.51 z-score
CCN(C(C)=O)c1cccc(-c2ccnc3c(C#N)cnn23)c1,-0.325 z-score
C=C1C[C@@H]2[C@H](CC[C@]3(C)C(=O)CC[C@@H]23)[C@@]2(C)C=CC(=O)C=C12,-1.51 z-score and -1.78 z-score

# Set 3 — cell line: A-375; tested at: 100 µM; time: 18 h
SMILES,viability [%]
NC(=O)CN1CC(O)CC1=O (stereo not drawn),77.4
CN1CCc2cc3c(cc2[C@H]1[C@@H]1OC(=O)c2c1ccc1c2OCO1)OCO3,106
COC[C@@H](NC(C)=O)C(=O)NCc1ccccc1,86.5
C[C@H]1CC(=O)C[C@@H]2CC[C@H]3[C@@H]4CC[C@H](O)[C@@]4(C)CC[C@@H]3[C@]21C,39.5
CC(C)(C)NCC(O)c1ccccc1Cl (stereo not drawn),88.1

# Mixed results
SMILES,cell line,technique,tested at,time,measurement,result
CN[C@@H]1C[C@H]2O[C@@](C)([C@@H]1OC)n1c3ccccc3c3c4c(c5c6ccccc6n2c5c31)C(=O)NC4,human CD34+ HSPC,EdU flow cytometry,100 nM,24 h,S-phase cells,34% and 26.5%

# A few entries again (set 3):
SMILES,viability [%]
C[C@H]1CC(=O)C[C@@H]2CC[C@H]3[C@@H]4CC[C@H](O)[C@@]4(C)CC[C@@H]3[C@]21C,39.5
CC(C)(C)NCC(O)c1ccccc1Cl (stereo not drawn),88.1
